Published values collected from several papers.
Each numbered part is a random draw from the data of one study; scales do not carry over between parts.

Series 1 — technique: RNA Bind-n-Seq; form: RNA; sample: in vitro; tested at: 365 nM; reference: no-protein control; direction: higher = stronger binding
Target: RNA binding protein fox-1 homolog 2, RRM domain, GST-SBP tag (RBFOX2, Homo sapiens, UniProt O43251-10, residues 100-194)
Setting: natural RNA segment, single round, ends assumed
Constant ends, left off below: GGGAGUUCUACAGUCCGACGAUC … UGGAAUUCUCGGGUGCCAA
Target sequence (chain): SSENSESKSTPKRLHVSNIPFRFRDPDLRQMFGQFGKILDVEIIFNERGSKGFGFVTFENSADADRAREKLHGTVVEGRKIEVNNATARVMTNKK
`UUGUUUUGUUUGCAAACAUGUUUUAAAUUAAAUUCGGGUAAUAUUAAACAGUACAUGUUUACAAUACCAAAAAAGAAAAAAUCCACAAAAGCCACUUUAUUUUAAAAUAU`: “RBNS enrichment (R)” 1.09.
`GACGAUGUUCUAAUAUAACACUGAAGUGCUUCAUUGUAUCCCAACAGUUUACCUUCAAGUAAUAUUAUCUUUAUUUUUAGGCUAAGCACGUUUGAUUAUUUUGUCUGUCU`: “RBNS enrichment (R)” 0.253.
`CUGCAAAGAGAGGCUCACGUGCCUCUCGGGUACAUGGAGAAGUUGCCAAGAGUUCUUUAGGUGCCUCCUGUCUUAUGGCGUUGCAGGCCAGGUUAUGCCUCAUGCUGACU`: “RBNS enrichment (R)” 0.214.
`CAAACGCCAUGGGUGCCGUCAGCGAGCGAAGCCUCUCGUGUCGGCUGAUAAAAGCCAGUGGCAGCUGUCGUGGCUGUGCUUUGUACUGCUCUCUACCAUGAAAGUGUAAA` — result for “RBNS enrichment (R)”: 0.357.
`CUUUUACUAAGAAGGGAUUUUUAAAUAUGGUGUCUACCUGGUAUCUCUCUCCCAAUAAGAAGCAGGUGCCUUUGGGGAAUGCUCCAACCUGUUUCAUCCCCAAAAGUUUU` — result for “RBNS enrichment (R)”: 0.555.
Under “RBNS enrichment (R)”, `AACUCUUUCUAUCCCGUGAAUAAAAGCAUCCCUUGGCUGGGAUAUAGGGCCACAUCAACCUGAGUUGGUACUGGGUGGCCAGGAUGGGGACUUUCCCAUUCUCAGCUGAG` is recorded as 0.642.
For `GCUGAGUGUAAAAGUUGUUAUCUGGACGAUCUGUCUCUCUGCUCCAAAGAAAUUUUGGAGUGAGUGGCAGUCCUGCGCCAGCCUCGCGGGACACGUGUUGUACAUAAGCC`, “RBNS enrichment (R)” read 0.312.
`AGUGAGCCCUUGGCUCAGCCCUUGUCACCUGUUUGUAUGGGGACCAUGUUUCCCAAAGCUCAGGUUCAUCUCCACUAUUGACAGAGUCGGGUAGUGGGAGAGUAUAAGUG` — result for “RBNS enrichment (R)”: 0.254.
For `GGGAAGGCCAGGCUGGACCCCGGCUCCACACCCACAUCCAGCCUGCAGGCCUCUCUGCAGUCCUCUCACCCUCCCUCAGCUCCCCUUCCUCUGCAGUCACCCUCAGCUCC`, “RBNS enrichment (R)” read 0.513.
`UAUUGCUCGUUCUAACUGUAAAGAAACCAAGAAAUAAUACAAGCUGGGGAAAAGAGAUGUCUUAAUUAGGGUCCUAUUGCUGUGAUGAAACAAAAUGACCAAACUCACGG` — result for “RBNS enrichment (R)”: 0.558.
`UCUUUCCCUCUUCUCCCCAGCCUCCUCCAGGGCUGCCCAAGGCAGGGUUUCCAGCCAGGCCUCGGGGUCAUCUUUUCACCAGGAGCAAACCCAAGUCUUAGUUGCUACAA` — result for “RBNS enrichment (R)”: 0.405.

Series 2 — technique: Sort-seq; item: YFP reporter; sample: E. coli; setting: PhoQ-PhoP variant library; added: 10 µM Mg2+; reference: high Mg2+ state; direction: higher = stronger signaling
Substance: PhoQ, residues 284 288 289 292 302 303 TTCLQL
It gave 24.7 for fold induction (PhoP, residues 12 14 15 18 19 TQCLL (Escherichia coli, UniProt P23836)).
PhoP, residues 12 14 15 18 19 VHTVL (Escherichia coli, UniProt P23836) — fold induction: 3.36.
It gave 5.48 for fold induction (PhoP, residues 12 14 15 18 19 ICWRQ (Escherichia coli, UniProt P23836)).

Series 3 — technique: RNA Bind-n-Seq; form: RNA; sample: in vitro; tested at: 1 µM; setting: whole 134-nt RNA, ends assumed; added: 150 mM KCl; reference: input library; direction: higher = stronger binding
Target: Ras GTPase-activating protein-binding protein 1, RRM domain (G3BP1, Homo sapiens, UniProt Q13283)
UniProt Q13283, sequence (whole entry, looked up): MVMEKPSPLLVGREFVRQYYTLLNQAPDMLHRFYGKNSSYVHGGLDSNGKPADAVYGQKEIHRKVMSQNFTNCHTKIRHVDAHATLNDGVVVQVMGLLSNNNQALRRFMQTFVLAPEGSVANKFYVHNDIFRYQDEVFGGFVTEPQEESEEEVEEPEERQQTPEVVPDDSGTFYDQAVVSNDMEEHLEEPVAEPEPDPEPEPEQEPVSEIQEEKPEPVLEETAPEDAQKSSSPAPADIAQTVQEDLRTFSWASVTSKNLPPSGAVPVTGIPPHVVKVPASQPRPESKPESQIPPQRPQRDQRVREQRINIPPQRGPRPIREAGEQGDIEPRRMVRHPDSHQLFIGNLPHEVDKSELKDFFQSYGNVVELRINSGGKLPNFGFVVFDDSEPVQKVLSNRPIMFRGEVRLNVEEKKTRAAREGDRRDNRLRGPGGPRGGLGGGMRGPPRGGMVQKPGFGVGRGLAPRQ
Constant ends, left off below: GGGAGUUCUACAGUCCGACGAUC … UGGAAUUCUCGGGUGUCAAGG
For `ACCAUGCAGGUGGGCAUCUUUGGGAAGAGGGGCAAGGGGGGGAUAGGGAGGGGGGUAACACUUUGGGAACAGGUGGUCCCAGGUCGUUUC`, the log2 enrichment was -0.625.
With `CCUCAAGUCCUGUGCUACACAUCGUAUGUACCGAAUCGGGCGGGGCGGGCGGGAAAGUAUUAUGUUACGCCGUUCGGAUCUGCACUUCCA` the log2 enrichment was 1.03.
`AGUCCUGUGCUACACAUCGUAUGUACCGAAUCGGGUUUUUUUGGGAAAAAGGGUGGGAAAGUAUUAUGUUACGCCGUUCGGAUCUGCACU` has a log2 enrichment of 0.501.
The log2 enrichment of `UGGGAGGUGGAUUUUGUUUAUUCUUUUAGCUCAUUUCCAGGGGUGGGAAUUUUUUUUUAAUAUGUGUCAUGAAUAAAGUUGUUUUUGAAA` is reported as 1.68.
`UGCAGCAGCGCCAGGAAUCGAGGAUGGUAAAAUGACCCAGGGGAAGAAGAAGAAACGGGCCGCGAACCGCAGUAUCAUGCUGGCCAAGAA` has a log2 enrichment of -0.156.
With `GCAGGAAGUAAAAACAAAUGGAAAUGCUUCGGAUAGUGGCAGGGGUGGGGGUUGCUAAGGAAAUGGUGGGAUGGGAGUGGGUAAAGAGUU` the log2 enrichment was 1.35.
`CUGUGCUACACAUCGUAUGUACCGAAUCGGGGUUUUUUUGGGGAAAAAGGGGAAAAAGGGGAAAGUAUUAUGUUACGCCGUUCGGAUCUG` has a log2 enrichment of 0.619.
`AGUCCUGUGCUACACAUCGUAUGUACCGAAUCAAAUUUAAAUUUAAACCCCCCCAAAAAAGUAUUAUGUUACGCCGUUCGGAUCUGCACU` gave a log2 enrichment of -0.477.
`CAAGUCCUGUGCUACACAUCGUAUGUACCGAAUCGGGUUUGGGAAAAAGGGAGGGAAAGUAUUAUGUUACGCCGUUCGGAUCUGCACUUC` has a log2 enrichment of 0.919.
With `CCUCACCACUCCUUUCUCUUUCAUUCAGUUCCGCUCAGUGGACGAGACUACCCAGGCUAUGGCCUUUGAUGGCAUCAUCUUCCAGGGCCA` the log2 enrichment was -0.102.
`AAGUCCUGUGCUACACAUCGUAUGUACCGAAUCGGCCCCCGGCCCCCGGCCCCCGGAAAGUAUUAUGUUACGCCGUUCGGAUCUGCACUU` has a log2 enrichment of -0.627.

Series 4 — technique: universal PBM; form: double-stranded DNA, one strand shown; sample: in vitro; tested at: 600 nM; direction: higher = stronger binding
Target: Sal-like protein 4, full length isoform A (SALL4, Homo sapiens, UniProt Q9UJQ4, residues 1-1053)
UniProt Q9UJQ4, sequence (whole entry, looked up): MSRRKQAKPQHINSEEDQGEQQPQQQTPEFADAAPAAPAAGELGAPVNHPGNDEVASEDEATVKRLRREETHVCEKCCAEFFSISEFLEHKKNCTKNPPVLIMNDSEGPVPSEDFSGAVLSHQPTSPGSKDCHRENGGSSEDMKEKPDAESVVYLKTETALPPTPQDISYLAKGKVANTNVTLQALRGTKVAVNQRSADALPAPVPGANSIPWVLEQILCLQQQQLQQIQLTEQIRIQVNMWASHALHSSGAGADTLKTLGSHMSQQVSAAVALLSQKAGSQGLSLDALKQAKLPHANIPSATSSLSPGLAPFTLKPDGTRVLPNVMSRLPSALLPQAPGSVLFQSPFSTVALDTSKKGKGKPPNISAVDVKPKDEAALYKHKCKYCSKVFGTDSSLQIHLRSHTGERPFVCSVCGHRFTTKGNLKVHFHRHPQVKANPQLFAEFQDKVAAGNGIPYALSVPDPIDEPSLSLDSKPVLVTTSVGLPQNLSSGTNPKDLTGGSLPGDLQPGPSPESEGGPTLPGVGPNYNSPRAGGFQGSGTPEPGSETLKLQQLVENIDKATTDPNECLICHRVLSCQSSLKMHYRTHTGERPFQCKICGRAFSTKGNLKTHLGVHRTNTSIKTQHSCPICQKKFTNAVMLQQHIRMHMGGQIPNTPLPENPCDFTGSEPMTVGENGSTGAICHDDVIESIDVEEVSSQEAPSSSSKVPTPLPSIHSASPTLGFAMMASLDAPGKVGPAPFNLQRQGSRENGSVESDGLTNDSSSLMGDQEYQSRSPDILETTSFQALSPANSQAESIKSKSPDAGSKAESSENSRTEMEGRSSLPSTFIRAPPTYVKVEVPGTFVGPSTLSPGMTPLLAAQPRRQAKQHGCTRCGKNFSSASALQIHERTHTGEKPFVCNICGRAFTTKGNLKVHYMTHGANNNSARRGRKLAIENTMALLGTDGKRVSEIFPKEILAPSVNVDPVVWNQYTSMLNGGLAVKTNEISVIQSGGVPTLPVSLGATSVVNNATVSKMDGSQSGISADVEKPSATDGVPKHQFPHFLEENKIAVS
Setting: 8-mer, flanks averaged, mean of replicates
With `AAGTCAAA` the E-score was 0.154.
The E-score of `GCCCAGTA` is reported as -0.185.
With `CACATACA` the E-score was 0.148.
`AACCGTAA` gave an E-score of 0.0542.
With `CTGGAACC` the E-score was -0.228.
`CTGGGATA` has an E-score of 0.0671.
For `ACGAACGA`, the E-score was 0.0547.
`AGAAGCTA` gave an E-score of 0.036.

Repeated from above (series 1):
`CUUUUACUAAGAAGGGAUUUUUAAAUAUGGUGUCUACCUGGUAUCUCUCUCCCAAUAAGAAGCAGGUGCCUUUGGGGAAUGCUCCAACCUGUUUCAUCCCCAAAAGUUUU` — result for “RBNS enrichment (R)”: 0.555.
`GACGAUGUUCUAAUAUAACACUGAAGUGCUUCAUUGUAUCCCAACAGUUUACCUUCAAGUAAUAUUAUCUUUAUUUUUAGGCUAAGCACGUUUGAUUAUUUUGUCUGUCU`: “RBNS enrichment (R)” 0.253.
`AGUGAGCCCUUGGCUCAGCCCUUGUCACCUGUUUGUAUGGGGACCAUGUUUCCCAAAGCUCAGGUUCAUCUCCACUAUUGACAGAGUCGGGUAGUGGGAGAGUAUAAGUG` — result for “RBNS enrichment (R)”: 0.254.
`UUGUUUUGUUUGCAAACAUGUUUUAAAUUAAAUUCGGGUAAUAUUAAACAGUACAUGUUUACAAUACCAAAAAAGAAAAAAUCCACAAAAGCCACUUUAUUUUAAAAUAU`: “RBNS enrichment (R)” 1.09.
`CUGCAAAGAGAGGCUCACGUGCCUCUCGGGUACAUGGAGAAGUUGCCAAGAGUUCUUUAGGUGCCUCCUGUCUUAUGGCGUUGCAGGCCAGGUUAUGCCUCAUGCUGACU`: “RBNS enrichment (R)” 0.214.
